Experimental data pooled from the literature.
A part holds a random share of what one study measured. Substitutions count along the parent as printed.

Series 1 — target: CCNA1, cyclin fold, Cln2 fusion (human); technique: yeast growth competition, sequencing; sample: yeast; notes: weak parent motif; reference: not given; reading: higher = stronger binding; measurement: normalised enrichment score
Parent: ORC1 docking peptide (human); PRARKRLELGNLG; partner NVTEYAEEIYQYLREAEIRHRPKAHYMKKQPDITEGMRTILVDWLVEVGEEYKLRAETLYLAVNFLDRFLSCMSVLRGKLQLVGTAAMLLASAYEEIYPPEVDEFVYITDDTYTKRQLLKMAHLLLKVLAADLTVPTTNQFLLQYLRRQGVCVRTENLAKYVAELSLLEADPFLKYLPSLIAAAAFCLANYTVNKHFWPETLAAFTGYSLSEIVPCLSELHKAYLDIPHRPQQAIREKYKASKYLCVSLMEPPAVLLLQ
E8G: 0.409
P1G: 0.191
R6Q: 0.167
R6S: 0.375

Series 2 — technique: DHFR PCA, deep sequencing; sample: yeast; added: (+)-ABA 710 µM; reference: wild-type fitted maximum; reading: higher = stronger binding; measurement: relative binding score
Target: ABI1, truncated, D143A, DHFR fusion (Arabidopsis thaliana)
Notes: methotrexate growth selection, single substitutions
Parent: PYL1, truncated, DHFR fusion (Arabidopsis thaliana); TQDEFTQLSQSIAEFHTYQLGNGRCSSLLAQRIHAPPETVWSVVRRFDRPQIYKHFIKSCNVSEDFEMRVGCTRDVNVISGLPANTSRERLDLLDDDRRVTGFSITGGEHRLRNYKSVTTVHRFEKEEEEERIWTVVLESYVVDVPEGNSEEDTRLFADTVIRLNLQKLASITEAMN
A175M: 95%
F103K: -28.1%
N177C: 121%
E125V: 113%
E38F: 83.7%
S9F: 94%

Series 3 — technique: aptamer microarray, sandwich; molecule type: DNA with 2'F-ANA; sample: in vitro; tested at: 200 nM; added: Cy3 exosite-II aptamer, 400 nM; reading: higher = stronger binding; measurement: mean fluorescence intensity; oligonucleotide: GGTTGGTGTGGTTGG
Target: Prothrombin, mature alpha-thrombin (F2, Homo sapiens, UniProt P00734)
Notes: whole 15-mer aptamer, many near background
2'F-ANA at 7 8 12 13 15: 762 a.u.
2'F-ANA at 1 5 6 7 9 10 11 13: 51.3 a.u.
2'F-ANA at 2 3 5 6 7 8 12 13 15: 165 a.u.
2'F-ANA at 2 5 8 14: 65.1 a.u.
2'F-ANA at 3 5 6 7 8 9 13 15: 187 a.u.
2'F-ANA at 1 2 4 7 10 13 15: 47.5 a.u.

Mixed results
PhoQ, residues 284 288 289 292 302 303 DDMDFR — fold induction (PhoP, residues 12 14 15 18 19 LYFRQ (Escherichia coli, UniProt P23836); Sort-seq, refers to: YFP reporter; E. coli; PhoQ-PhoP variant library, added: 10 µM Mg2+; reference: high Mg2+ state, higher = stronger signaling): 0.929

A few entries again (series 2):
N177C: 121%
E125V: 113%
